Measured values collected from several papers.
Each numbered part is a random draw from the data of one study; scales do not carry over between parts. Positions count from the first letter of the parent shown.

Study 1
Target: UBE2E3 UBC core domain (UniProt Q969T4)
UniProt Q969T4, sequence (whole entry, looked up): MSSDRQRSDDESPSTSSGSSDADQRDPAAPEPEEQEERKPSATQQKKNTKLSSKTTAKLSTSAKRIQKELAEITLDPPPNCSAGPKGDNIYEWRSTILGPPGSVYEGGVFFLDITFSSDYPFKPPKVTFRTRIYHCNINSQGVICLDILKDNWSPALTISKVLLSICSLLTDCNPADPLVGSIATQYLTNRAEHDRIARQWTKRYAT
Technique: yeast two-hybrid
Matrix: yeast
Setting: mostly zero background
Baseline: not given
Direction: higher = stronger interaction
B1: TRIM60 RING domain (UniProt Q495X7); chain ALVNLQEESSCPICLEYLKDPVTINCGHNFCRSCLSVSWKDLDDTFPCPVCRFCFPYKSFRR
B2: ANAPC11 RING domain (UniProt Q9NYG5); chain GICRMAFNGCCPDCKVPGDDCPLVWGQCSHCFHMHCILKWLHAQQVQQHCPMCRQEWKFKE
B3: MKRN2 RING domain (UniProt Q9H000); chain FAFQASQDKVCSICMEVILEKASASERRFGILSNCNHTYCLSCIRQWRCAKQFENPIIKSCPECRVISEFVIPSV
B4: RLIM RING domain (UniProt Q9NVW2); chain SFGENDALKTCSVCITEYTEGNKLRKLPCSHEYHVHCIDRWLSENSTCPICRRAVLASGNRE
| Sequence | lacZ reporter activity |
| --- | --- |
| PEELAVNNDDCAICWDSMQAARKLPCGHLFHNSCLRSWLEQDTSCPTCRMSLNIADNNR (AMFR RING domain (UniProt Q9UKV5)) | 0 |
| LDAASGHPLVCPLCHGQYERPCLLDCFHDFCTGCLRGRATDGRLSCPLCQHQTLVKGPSG (Rnf207 RING domain (UniProt Q3V3A7)) | 0 |
| B1 (TRIM60 RING domain) | 0 |
| MNDVLENELQCIICSEYFIEAVTLNCAHSFCSYCINEWMKRKIECPICRKDIKSKTYSL (RNF8 RING domain (UniProt O76064)) | 0 |
| B2 (ANAPC11 RING domain) | 0 |
| LGTKLEAKYLCSACRNVLRRPFQAQCGHRYCSFCLASILSSGPQNCAACVHEGIYEEGIS (TRAF2 RING domain (UniProt Q12933)) | 0 |
| B3 (MKRN2 RING domain) | 0 |
| B4 (RLIM RING domain) | 0 |

Study 2
Target: Ras GTPase-activating protein-binding protein 1, C-terminal RGG region (G3BP1, Homo sapiens, UniProt Q13283)
UniProt Q13283, sequence (whole entry, looked up): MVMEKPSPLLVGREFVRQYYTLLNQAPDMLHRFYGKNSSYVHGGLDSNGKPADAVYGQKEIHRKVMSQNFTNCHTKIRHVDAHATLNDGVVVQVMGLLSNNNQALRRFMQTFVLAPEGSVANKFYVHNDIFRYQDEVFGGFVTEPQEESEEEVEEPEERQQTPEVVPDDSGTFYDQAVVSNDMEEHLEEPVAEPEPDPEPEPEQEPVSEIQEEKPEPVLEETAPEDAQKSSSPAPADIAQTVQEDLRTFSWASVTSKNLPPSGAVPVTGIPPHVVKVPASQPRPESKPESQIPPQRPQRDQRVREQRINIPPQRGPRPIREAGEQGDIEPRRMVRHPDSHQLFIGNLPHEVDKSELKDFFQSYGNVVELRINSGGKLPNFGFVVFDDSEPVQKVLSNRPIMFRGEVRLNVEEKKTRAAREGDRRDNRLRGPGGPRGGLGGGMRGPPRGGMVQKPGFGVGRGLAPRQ
Technique: RNA Bind-n-Seq
Molecule type: RNA
Matrix: in vitro
Concentration: 1 µM
Setting: whole 134-nt RNA, ends assumed
Together with: 150 mM KCl
Baseline: input library
Direction: higher = stronger binding
| Sequence | log2 enrichment |
| --- | --- |
| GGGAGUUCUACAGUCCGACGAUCUCCUCAAGUCCUGUGCUACACAUCGUAUGUACCGAAUCGGCGGGGCGGCGGAAAGUAUUAUGUUACGCCGUUCGGAUCUGCACUUCCAGCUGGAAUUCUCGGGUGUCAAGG | -0.794 |
| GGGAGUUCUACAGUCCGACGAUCUAACUUUAGAGGAGGAUCUGAUGGAUAUGGCAGUGGACGUGGAUUUGGGGAUGGCUAUAAUGGGUGUGGAGGAGGACCUGGAGGUGGCAAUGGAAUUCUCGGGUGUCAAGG | -0.421 |
| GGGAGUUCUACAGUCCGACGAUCCAAGUCCUGUGCUACACAUCGUAUGUACCGAAUCGGGGAAAGGGGAGGGGAGGGGAAAGUAUUAUGUUACGCCGUUCGGAUCUGCACUUCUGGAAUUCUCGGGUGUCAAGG | 3.25 |
| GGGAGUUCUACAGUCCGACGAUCUAACUUUAGAGGAGGAUCUGAUGGAUAUGGCAGUGGACGUGGAUUUGGGGAUGGAUAUAAUGGGUAUGGAGGAGGACCUGGAGGUGGCAAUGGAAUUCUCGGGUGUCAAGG | -0.798 |
| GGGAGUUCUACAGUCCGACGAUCCACAGACAACACGCACCCACACAGACACAGAGGGAAGGGGUUGGGAUGGGGACAGGGUGCACAGCAGGGCGAAAUAGGACCCCAGCCCCUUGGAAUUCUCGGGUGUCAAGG | -0.115 |
| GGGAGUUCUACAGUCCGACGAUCUCCUGUGCUACACAUCGUAUGUACCGAAUCGGGAAAAAGGGAAAAAGGGAAAAAAAGGGAAAGUAUUAUGUUACGCCGUUCGGAUCUGCAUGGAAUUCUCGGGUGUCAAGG | -0.798 |
| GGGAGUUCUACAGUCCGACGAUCCUGUGCUACACAUCGUAUGUACCGAAUCGGGGAAAAAAAGGAAAAAAAGGGGAAAAAAAGGGAAAGUAUUAUGUUACGCCGUUCGGAUCUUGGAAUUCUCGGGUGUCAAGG | -1.22 |
| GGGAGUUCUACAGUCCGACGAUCUAACUUUAGAGGAGGAUCUGAUGGAUAUGGCAGUGGACGUGGAUUUGGGGAUGGCUGUAAUGGGUAUGGAGGAGGACCUGGAGGUGGCAAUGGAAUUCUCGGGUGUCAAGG | -1.1 |
| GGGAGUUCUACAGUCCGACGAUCUAACUUUAGAGGAGGAUCUGAUGGAUAUGGCAGUGGACGUGGAUUGGGGGAUGGCUAUAAUGGGUAUGGAGGAGGACCUGGAGGUGGCAAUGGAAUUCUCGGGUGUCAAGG | -1.32 |

Study 3
Target: ABI1, truncated, D143A, DHFR fusion (Arabidopsis thaliana)
Technique: DHFR PCA, deep sequencing
Matrix: yeast
Setting: methotrexate growth selection, single substitutions
Together with: (+)-ABA 0.032 µM
Baseline: wild-type fitted maximum
Direction: higher = stronger binding
Starting sequence: PYL1, truncated, DHFR fusion (Arabidopsis thaliana); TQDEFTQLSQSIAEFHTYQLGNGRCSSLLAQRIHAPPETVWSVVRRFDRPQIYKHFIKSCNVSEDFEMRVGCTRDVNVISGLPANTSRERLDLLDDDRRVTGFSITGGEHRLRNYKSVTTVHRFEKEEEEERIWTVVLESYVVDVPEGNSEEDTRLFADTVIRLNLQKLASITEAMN
| Change | relative binding score [%] |
| --- | --- |
| G108M | -1.8 |
| Q19V | 19.1 |
| L28T | 6.33 |
| L8S | 5.54 |
| Q10L | 7.16 |
| D48E | 3.47 |
| T17I | -5.64 |
| L20R | 31 |
| H34I | 17.8 |
| L94K | -6.34 |
| T101M | 64.9 |
| I133S | 32.4 |
| T6A | 44.3 |
| G102L | -3.61 |

Study 4
Target: Histone acetyltransferase KAT6A, both winged helices, GST fusion (KAT6A, Homo sapiens, UniProt Q92794, residues 1-181)
Technique: protein binding microarray
Molecule type: double-stranded DNA, one strand shown
Matrix: in vitro
Concentration: not given
Setting: 8-mer, flanks averaged, mean of 2 arrays, mostly near background
Baseline: not given
Direction: higher = stronger binding
Construct (chain): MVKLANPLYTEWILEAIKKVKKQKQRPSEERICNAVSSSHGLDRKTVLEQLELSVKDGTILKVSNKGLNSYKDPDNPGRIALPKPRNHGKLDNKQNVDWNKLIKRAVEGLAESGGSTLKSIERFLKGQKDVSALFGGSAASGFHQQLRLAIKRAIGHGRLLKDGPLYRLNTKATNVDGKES
| Sequence | E-score |
| --- | --- |
| ATATGTCG | 0.00334 |
| AAACAGTC | -0.00539 |
| AACAGTCA | -0.0227 |
| GTGTCCCA | 0.0789 |
| AGTACCAT | -0.0809 |
| TCAGGTAA | -0.263 |
| AGTCCGTG | 0.13 |
| TGTCTCAA | -0.121 |
| ACGAGGTC | -0.0581 |
| AGACATGG | -0.0346 |
| GTGCAGAA | -0.006 |
| ATATGTTC | 0.0358 |
| TAGCCTGA | -0.276 |
| CAACGTAG | -0.144 |
| GCCGCAGC | 0.232 |
| CACCTTGG | -0.199 |
| ATTGGGTC | -0.0584 |

For quick reference, copied from above (study 2):
| Sequence | log2 enrichment |
| --- | --- |
| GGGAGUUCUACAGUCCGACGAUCUCCUCAAGUCCUGUGCUACACAUCGUAUGUACCGAAUCGGCGGGGCGGCGGAAAGUAUUAUGUUACGCCGUUCGGAUCUGCACUUCCAGCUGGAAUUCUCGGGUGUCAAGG | -0.794 |
| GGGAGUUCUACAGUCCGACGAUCUAACUUUAGAGGAGGAUCUGAUGGAUAUGGCAGUGGACGUGGAUUUGGGGAUGGCUAUAAUGGGUGUGGAGGAGGACCUGGAGGUGGCAAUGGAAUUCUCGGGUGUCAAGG | -0.421 |
| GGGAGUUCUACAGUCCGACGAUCCAAGUCCUGUGCUACACAUCGUAUGUACCGAAUCGGGGAAAGGGGAGGGGAGGGGAAAGUAUUAUGUUACGCCGUUCGGAUCUGCACUUCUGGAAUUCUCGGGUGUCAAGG | 3.25 |
| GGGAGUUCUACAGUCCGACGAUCUAACUUUAGAGGAGGAUCUGAUGGAUAUGGCAGUGGACGUGGAUUUGGGGAUGGAUAUAAUGGGUAUGGAGGAGGACCUGGAGGUGGCAAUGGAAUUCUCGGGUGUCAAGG | -0.798 |
| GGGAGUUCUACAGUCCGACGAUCCACAGACAACACGCACCCACACAGACACAGAGGGAAGGGGUUGGGAUGGGGACAGGGUGCACAGCAGGGCGAAAUAGGACCCCAGCCCCUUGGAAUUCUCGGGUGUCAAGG | -0.115 |
| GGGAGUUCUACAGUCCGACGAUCUCCUGUGCUACACAUCGUAUGUACCGAAUCGGGAAAAAGGGAAAAAGGGAAAAAAAGGGAAAGUAUUAUGUUACGCCGUUCGGAUCUGCAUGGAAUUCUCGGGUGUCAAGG | -0.798 |
| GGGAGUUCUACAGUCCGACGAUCCUGUGCUACACAUCGUAUGUACCGAAUCGGGGAAAAAAAGGAAAAAAAGGGGAAAAAAAGGGAAAGUAUUAUGUUACGCCGUUCGGAUCUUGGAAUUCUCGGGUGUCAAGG | -1.22 |
